Published values from different studies.
Compare with care: the assays were run in different laboratories. Several values in a cell are separate wells, animals, samples, runs or records.

SMILES	test	test system	conditions	half-life
COc1cccc2c(N3CCC(CCP(=O)(O)O)CC3)ncnc12		C57BL/6 mice, female, cerebrospinal fluid	subcutaneous, 100 mg/kg	600 min
O=C(c1ccnc(N2Cc3cn(Cc4ccc(F)cc4)nc3C2)n1)N1CCCCC1	metabolic stability	human, liver microsomes		51 min
Cc1c(Cc2ccc(Cl)c(O[C@@H](C)C(=O)O)c2)c2ccc(C(=O)N[C@@H](C)c3ccc(C(C)(C)C)cc3)cc2n1C	metabolic stability	human, liver microsomes		> 60 min
CN(C)C(=O)c1cccc(N2Cc3cn(Cc4ccc(C#N)cc4)nc3C2)c1	metabolic stability	human, liver microsomes		118 min
CC[C@H](C)[C@H](NC(=O)[C@H](Cc1ccccc1)NC(=O)[C@H](CCC(=O)O)NC(=O)[C@H](CCCCN)NC(=O)[C@H](C)NC(=O)[C@H](C)NC(=O)[C@H](CCC(N)=O)NC(=O)CNC(=O)[C@H](CCC(=O)O)NC(=O)[C@H](CC(C)C)NC(=O)[C@H](Cc1ccc(O)cc1)NC(=O)[C@H](CO)NC(=O)[C@H](CO)NC(=O)[C@@H](NC(=O)[C@H](CC(=O)O)NC(=O)[C@H](CO)NC(=O)[C@@H](NC(=O)[C@H](Cc1ccccc1)NC(=O)[C@@H](NC(=O)CNC(=O)[C@H](CCC(=O)O)NC(=O)[C@H](C)NC(=O)[C@@H](N)Cc1c[nH]cn1)[C@@H](C)O)[C@@H](C)O)C(C)C)C(=O)N[C@@H](C)C(=O)N[C@@H](Cc1c[nH]c2ccccc12)C(=O)N[C@@H](CC(C)C)C(=O)N[C@H](C(=O)N[C@@H](CCCNC(=N)N)C(=O)NCC(=O)N[C@@H](CCCNC(=N)N)C(=O)NCC(=O)O)C(C)C		male ICR mice, plasma	intravenous bolus, 1 mg/kg	4.2 min and 5.4 min
CN(C)C(=O)c1cccc(N2Cc3cn(Cc4cccc(C(F)(F)F)c4)nc3C2)c1	metabolic stability	human, liver microsomes		49 min
C=C(NC(=O)c1csc(-c2nc3c(cc2O)-c2nc(cs2)C(=O)NC(C(C)O)C(=O)NC(=C(C)OC)c2nc(cs2)C(=O)NC2c4nc(cs4)C(=O)NC(COC(=O)c4c5c6c(cccc6n4O)COC(=O)C(OC4CC(C)(O)C(N(C)C)C(C)O4)C2OC5)c2nc-3cs2)n1)C(N)=O (stereo not shown)		female cynomolgus monkey, plasma	intravenous, 3 mg/kg, single dose, infusion	347 min
Cc1c(Cc2ccc(F)c(OC(C)C(=O)O)c2)c2ccc(C(=O)NC(C)c3ccc(C(C)(C)C)cc3)cc2n1CC(C)C (stereo not shown)	metabolic stability	human, liver microsomes		> 60 min
C/C(N)=N/C(=N\S(=O)(=O)c1ccc(C(F)(F)F)cc1)N1C[C@H](c2ccccc2)C(c2ccc(Cl)cc2)=N1		female cynomolgus monkey, plasma	intravenous, 2 mg/kg	900 min
CC(C)Cn1cc(Cc2cccc(OC(C)(C)C(=O)O)c2)c2ccc(C(=O)N[C@@H](C)c3cc(F)cc(C(C)(C)C)c3)cc21	metabolic stability	human, liver microsomes		> 60 min
CN(C(=O)c1ccnc(N2Cc3cn(Cc4ccc(F)cc4)nc3C2)n1)C1CCCCC1	metabolic stability	human, liver microsomes		8 min
COC1CN([C@H]2CC[C@H]([C@@]3(C)Oc4c(Cl)cc(C(=O)NCc5c(SC)cc(C)[nH]c5=O)c(C)c4O3)CC2)C1		female CB17 SCID mice, HT-1376 xenograft, plasma	75 mg/kg, day 1	171 min
Cc1c(Cc2cccc(OC(C)(C)C(=O)O)c2)c2ccc(C(=O)N[C@@H](C)c3cc(C(C)(C)C)ccc3F)cc2n1CC(C)C	metabolic stability	human, liver microsomes		53 min

A few entries again:
SMILES	test	test system	conditions	half-life
COC1CN([C@H]2CC[C@H]([C@@]3(C)Oc4c(Cl)cc(C(=O)NCc5c(SC)cc(C)[nH]c5=O)c(C)c4O3)CC2)C1		female CB17 SCID mice, HT-1376 xenograft, plasma	75 mg/kg, day 1	171 min
Cc1c(Cc2cccc(OC(C)(C)C(=O)O)c2)c2ccc(C(=O)N[C@@H](C)c3cc(C(C)(C)C)ccc3F)cc2n1CC(C)C	metabolic stability	human, liver microsomes		53 min
